Assay results gathered from unrelated publications.
± marks the error that the study gave.
Target: Cytochrome P450 3A4 (CYP3A4, Homo sapiens, UniProt P08684)
Chain of UniProt P08684 (whole entry, looked up): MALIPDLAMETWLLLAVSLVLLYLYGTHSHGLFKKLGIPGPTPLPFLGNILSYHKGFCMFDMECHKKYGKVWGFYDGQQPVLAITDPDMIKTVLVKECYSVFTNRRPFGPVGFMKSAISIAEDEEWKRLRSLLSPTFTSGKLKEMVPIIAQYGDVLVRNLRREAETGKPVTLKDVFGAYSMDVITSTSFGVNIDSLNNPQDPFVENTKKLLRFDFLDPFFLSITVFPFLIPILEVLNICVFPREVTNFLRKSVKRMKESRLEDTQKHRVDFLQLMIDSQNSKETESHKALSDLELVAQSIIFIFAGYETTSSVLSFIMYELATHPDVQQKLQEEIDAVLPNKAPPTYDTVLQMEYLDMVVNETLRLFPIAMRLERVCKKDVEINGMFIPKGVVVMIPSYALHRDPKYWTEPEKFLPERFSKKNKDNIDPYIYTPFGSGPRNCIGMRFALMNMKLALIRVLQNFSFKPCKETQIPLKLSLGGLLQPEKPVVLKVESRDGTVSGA

| SMILES | test | test system | conditions | scale | measurement | value |
| --- | --- | --- | --- | --- | --- | --- |
| O=C(Nc1nc(C(F)(F)F)co1)C1c2ccccc2Oc2ccccc21 | enzyme activity, inhibitor |  | 3A4 |  | IC50 | > 30 µM |
| O=C(NCCCc1cccnc1)C(Cc1ccccc1)SCC(Cc1ccccc1)NC(=O)C(F)(F)F (stereo not shown) | enzyme activity, inhibitor |  |  |  | IC50 | 0.31 µM |
| CCc1nc(N)nc(N)c1C#CC(C)c1cc(-c2ccnc(OC)c2)ccc1OC (racemic) | enzyme activity, inhibitor, fluorescence |  |  |  | IC50 | 2.6 µM |
| NC(COc1ccccc1C(F)(F)F)c1ccccc1 (stereo not shown) | substrate | purified enzyme | 50 µM, pH 7.4 |  | metabolic rate | 15.4 ± 6.7 nmol/min/mg protein |
| CCc1nc(N)nc(N)c1C#C[C@H](C)c1cc(-c2ccncc2)ccc1OC | enzyme activity, inhibitor, fluorescence |  |  |  | IC50 | 0.05 µM |
| [2H]c1c(NS(C)(=O)=O)c([2H])c2c(C(=O)c3ccc(OCCCN(CCCC)CCCC)cc3)c(CCCC)oc2c1[2H] | metabolic stability | recombinant enzyme | 1 µM, enzyme 10 pmol/mL |  | half-life | 7.8 min |
| CC(C)c1nc(CN(C)C(=O)NC(C(=O)NC(Cc2ccccc2)CC(O)C(N)Cc2ccccc2)C(C)C)cs1 (stereo not shown) | binding, absorbance |  |  |  | Kd | 3.6 µM |
| CCc1nc(N)nc(N)c1C#CC(C)c1cc(F)cc(-c2cc(C)nc(C)c2)c1 (racemic) | enzyme activity, inhibitor, fluorescence |  |  |  | IC50 | 5.4 µM |
| COc1ccc2cc(NC(=O)c3cc(-c4cccnc4)nc4ccccc34)ccc2c1 | substrate, item: metabolites M1 plus M2 | baculosomes |  |  | kcat | 0.273 s⁻¹ |
| Cc1ccc(OCC(=O)N(Cc2cccs2)c2ccn[nH]2)cc1 | enzyme activity, inhibitor, fluorescence | Sf9 | 10 µM |  | inhibition | 88% |
| O=C(N[C@@H](Cn1cncn1)c1ccc(Cl)cc1Cl)c1ccc(-c2nnc(-c3ccccc3)o2)cc1 |  |  |  |  | IC50 | 2.91 ± 0.227 µM |
| CC(=O)OC1(C(C)=O)CCC2C3C=C(C)C4=CC(=O)C(O)CC4(C)C3CCC21C (stereo not shown) | substrate | recombinant enzyme | 62 µM, 25 min |  | formation rate | 4.9 ± 0.1 pmol/min/pmol P450 |
| CCc1nc(N)nc(N)c1C#CC(C)c1cc(-c2cc(C)nc(C)c2)ccc1OC(F)(F)F (racemic) | enzyme activity, inhibitor, fluorescence |  |  |  | IC50 | > 50 µM |
| Brc1ccccc1-c1nnc(CSc2nnnn2-c2ccccc2)o1 | enzyme activity, inhibitor, fluorescence | insect cell microsomes | 10 µM |  | inhibition | 91% |
| O=C(CNC(=O)C(F)(F)F)NC(CSC(Cc1ccccc1)C(=O)NCCCc1cccnc1)Cc1ccccc1 (stereo not shown) | thermal stability |  |  |  | ΔTm | 6.4 °C |
| Cc1cccc(-c2cccc(C)n2)n1.[Cl-].[Cl][Ru+].c1ccc(-c2cccc(-c3ccccn3)n2)nc1 | enzyme activity, inhibitor |  | dark |  | IC50 | > 50 µM |
| CC(C)(C)OC(=O)NC(CSC(Cc1ccccc1)C(=O)NCCCc1cccnc1)CC1c2ccccc2-c2ccccc21 (mixture of isomers) | thermal stability |  |  |  | ΔTm | 4.5 °C |
| CCC1CC2C(C)=CC3C(=O)CCCC3C=CC(C)=CC2C(=O)O1 (stereo not shown) |  | human liver microsomes | 10 µM, 10 min, pH 7.4, together with: testosterone 2 µM | baseline: untreated | remaining activity | 80.9% |
| O=C(CNC(=O)C(F)(F)F)NC(CSC(Cc1ccccc1)C(=O)NCCc1cccnc1)Cc1ccccc1 (stereo not shown) | thermal stability |  |  |  | ΔTm | 3.1 °C |
| O=C(CS(=O)(=O)Cc1ccco1)C12CC3CC(CC(C3)C1)C2 | enzyme activity, inhibitor |  | 10 µM, together with: substrate BQ |  | inhibition | 52% |
| O=C(NCCCc1cccnc1)C(Cc1ccccc1)SCC(Cc1ccccc1)NS(=O)(=O)c1ccccc1 (stereo not shown) | thermal stability |  |  |  | ΔTm | 5.7 °C |
| CC(C)c1nc(CN(C)C(=O)NC(C(=O)NC(Cc2ccccc2)CC(O)C(Cc2ccccc2)NC(=O)OCc2cccs2)C(C)C)cs1 (stereo not shown) | binding, absorbance |  |  |  | Kd | 0.5 µM |

Excerpt of the above:
| SMILES | test | test system | conditions | scale | measurement | value |
| --- | --- | --- | --- | --- | --- | --- |
| Brc1ccccc1-c1nnc(CSc2nnnn2-c2ccccc2)o1 | enzyme activity, inhibitor, fluorescence | insect cell microsomes | 10 µM |  | inhibition | 91% |
| O=C(CNC(=O)C(F)(F)F)NC(CSC(Cc1ccccc1)C(=O)NCCCc1cccnc1)Cc1ccccc1 (stereo not shown) | thermal stability |  |  |  | ΔTm | 6.4 °C |
| Cc1cccc(-c2cccc(C)n2)n1.[Cl-].[Cl][Ru+].c1ccc(-c2cccc(-c3ccccn3)n2)nc1 | enzyme activity, inhibitor |  | dark |  | IC50 | > 50 µM |
| CC(C)(C)OC(=O)NC(CSC(Cc1ccccc1)C(=O)NCCCc1cccnc1)CC1c2ccccc2-c2ccccc21 (mixture of isomers) | thermal stability |  |  |  | ΔTm | 4.5 °C |
